Measured values collected from several papers.
± gives the spread as reported.
ALB: Albumin (ALB, Homo sapiens, UniProt P02768)
ABCB1: ATP-dependent translocase ABCB1 (ABCB1, Homo sapiens, UniProt P08183)
Sequence of UniProt P08183 (whole entry, looked up): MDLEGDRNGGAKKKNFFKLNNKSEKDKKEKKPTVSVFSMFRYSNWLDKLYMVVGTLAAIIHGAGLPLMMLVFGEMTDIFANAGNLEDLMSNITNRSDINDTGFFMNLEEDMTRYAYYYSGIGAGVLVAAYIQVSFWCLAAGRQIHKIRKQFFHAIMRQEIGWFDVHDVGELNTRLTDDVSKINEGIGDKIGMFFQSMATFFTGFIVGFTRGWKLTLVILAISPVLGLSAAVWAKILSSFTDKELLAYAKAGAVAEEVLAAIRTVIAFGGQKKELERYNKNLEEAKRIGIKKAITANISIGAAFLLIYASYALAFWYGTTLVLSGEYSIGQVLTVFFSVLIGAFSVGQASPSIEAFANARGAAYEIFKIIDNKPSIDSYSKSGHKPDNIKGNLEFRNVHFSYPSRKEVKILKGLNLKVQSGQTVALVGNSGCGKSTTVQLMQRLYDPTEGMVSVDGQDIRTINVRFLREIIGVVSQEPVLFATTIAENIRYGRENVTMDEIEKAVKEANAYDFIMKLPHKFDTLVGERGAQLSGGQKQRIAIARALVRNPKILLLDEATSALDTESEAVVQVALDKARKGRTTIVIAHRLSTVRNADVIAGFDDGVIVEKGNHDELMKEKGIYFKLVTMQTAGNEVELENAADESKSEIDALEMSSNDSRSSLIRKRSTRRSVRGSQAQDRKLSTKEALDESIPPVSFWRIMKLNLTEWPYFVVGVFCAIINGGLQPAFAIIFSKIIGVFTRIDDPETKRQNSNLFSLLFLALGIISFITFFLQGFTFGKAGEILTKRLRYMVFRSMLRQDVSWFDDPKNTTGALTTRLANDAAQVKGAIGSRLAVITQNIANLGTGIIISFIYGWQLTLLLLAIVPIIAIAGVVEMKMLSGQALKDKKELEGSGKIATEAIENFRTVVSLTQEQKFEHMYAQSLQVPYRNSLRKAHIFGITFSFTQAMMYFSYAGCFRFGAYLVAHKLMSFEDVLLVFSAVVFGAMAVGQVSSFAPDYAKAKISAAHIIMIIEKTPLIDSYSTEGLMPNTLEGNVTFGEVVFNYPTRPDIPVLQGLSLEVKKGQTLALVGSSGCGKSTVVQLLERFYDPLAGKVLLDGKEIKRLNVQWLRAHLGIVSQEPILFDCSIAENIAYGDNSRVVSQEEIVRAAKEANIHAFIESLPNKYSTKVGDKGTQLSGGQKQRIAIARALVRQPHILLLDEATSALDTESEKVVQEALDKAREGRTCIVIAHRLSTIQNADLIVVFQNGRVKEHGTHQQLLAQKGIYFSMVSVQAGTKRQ
Sequence of UniProt P20813 (whole entry, looked up): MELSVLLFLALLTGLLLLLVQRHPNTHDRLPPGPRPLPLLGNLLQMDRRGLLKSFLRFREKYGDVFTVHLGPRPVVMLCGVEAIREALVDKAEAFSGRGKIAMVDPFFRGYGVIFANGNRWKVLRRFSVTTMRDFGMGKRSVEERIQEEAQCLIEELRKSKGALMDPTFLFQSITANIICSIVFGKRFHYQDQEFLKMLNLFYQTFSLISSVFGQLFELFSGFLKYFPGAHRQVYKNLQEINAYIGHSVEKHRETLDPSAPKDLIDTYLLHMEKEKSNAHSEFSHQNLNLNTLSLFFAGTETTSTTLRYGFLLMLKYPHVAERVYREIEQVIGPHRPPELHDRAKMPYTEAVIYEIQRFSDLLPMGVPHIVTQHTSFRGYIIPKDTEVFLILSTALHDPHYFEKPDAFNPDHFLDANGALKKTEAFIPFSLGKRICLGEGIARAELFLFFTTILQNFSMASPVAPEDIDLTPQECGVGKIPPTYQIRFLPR
Sequence of UniProt O15439 (whole entry, looked up): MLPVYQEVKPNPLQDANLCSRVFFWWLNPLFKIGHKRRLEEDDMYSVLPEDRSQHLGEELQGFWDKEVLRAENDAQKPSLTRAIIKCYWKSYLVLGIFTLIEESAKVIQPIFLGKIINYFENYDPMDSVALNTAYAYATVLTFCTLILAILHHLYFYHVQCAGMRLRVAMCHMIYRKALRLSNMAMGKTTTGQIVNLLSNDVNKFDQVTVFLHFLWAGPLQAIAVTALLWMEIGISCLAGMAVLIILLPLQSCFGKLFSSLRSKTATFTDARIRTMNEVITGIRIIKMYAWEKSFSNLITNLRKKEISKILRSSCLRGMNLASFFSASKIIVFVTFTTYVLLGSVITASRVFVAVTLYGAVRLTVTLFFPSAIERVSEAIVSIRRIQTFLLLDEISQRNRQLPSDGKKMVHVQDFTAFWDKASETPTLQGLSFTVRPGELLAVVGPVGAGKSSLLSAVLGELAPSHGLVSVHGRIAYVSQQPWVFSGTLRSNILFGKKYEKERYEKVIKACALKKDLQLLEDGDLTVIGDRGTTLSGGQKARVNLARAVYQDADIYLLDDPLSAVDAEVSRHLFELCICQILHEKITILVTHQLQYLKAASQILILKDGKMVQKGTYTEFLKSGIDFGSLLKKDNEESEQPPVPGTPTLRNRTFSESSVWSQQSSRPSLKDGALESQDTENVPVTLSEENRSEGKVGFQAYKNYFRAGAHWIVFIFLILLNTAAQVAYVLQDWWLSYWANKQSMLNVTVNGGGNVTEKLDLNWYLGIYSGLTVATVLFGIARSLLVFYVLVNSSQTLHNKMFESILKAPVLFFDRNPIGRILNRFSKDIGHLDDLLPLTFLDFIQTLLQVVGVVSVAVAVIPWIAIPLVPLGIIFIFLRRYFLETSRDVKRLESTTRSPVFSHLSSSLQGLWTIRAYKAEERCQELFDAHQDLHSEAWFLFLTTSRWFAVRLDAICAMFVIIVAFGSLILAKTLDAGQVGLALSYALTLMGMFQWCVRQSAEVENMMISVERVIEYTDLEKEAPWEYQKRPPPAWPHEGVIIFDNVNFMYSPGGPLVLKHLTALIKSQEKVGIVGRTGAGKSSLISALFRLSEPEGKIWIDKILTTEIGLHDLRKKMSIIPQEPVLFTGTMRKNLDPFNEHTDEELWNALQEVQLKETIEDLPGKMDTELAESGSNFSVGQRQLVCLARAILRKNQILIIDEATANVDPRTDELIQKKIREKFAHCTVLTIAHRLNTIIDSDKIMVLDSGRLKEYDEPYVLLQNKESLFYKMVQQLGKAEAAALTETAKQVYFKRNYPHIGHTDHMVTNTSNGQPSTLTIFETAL

CN1CCN(c2ccc3[nH]c(-c4ccc5[nH]c(-c6ccc(OCCCCNC(=O)c7cccc8c7C(=O)OC87c8ccc(N(C)C)cc8C(C)(C)c8cc(N(C)C)ccc87)cc6)nc5c4)nc3c2)CC1 — result for “fluorescence quantum yield”: 0.092 ± 0.002 (ALB; PBS; 1 µM, 1 h, together with: 25 mg/mL albumin).
CNc1nc(N)nc2c1ncn2[C@@H]1O[C@H](CO[P@](=O)(O)N[C@@H](C)C(=O)O)[C@@H](O)[C@@]1(C)F — result for “Papp B to A”: 6.08 ± 0.57 ×10⁻⁶ cm/s (ABCB1; bidirectional transport; LLC-PK1, human MDR1, transfected with; 10 µM, together with: zosuquidar 1 µM).
CN1CCN(c2ccc3[nH]c(-c4ccc5[nH]c(-c6ccc(OCCCCNC(=O)c7cccc8c7C(=O)OC87c8ccc(N(C)C)cc8[Si](C)(C)c8cc(N(C)C)ccc87)cc6)nc5c4)nc3c2)CC1 gave a Kd of 15 ± 9 µM (ALB; binding, fluorescence titration; PBS; 1 h).
CNC(=O)C1CCCN(C(=O)C2CC3CCC2N3C(=O)[C@@H]2C[C@@H](O)CN2C(=O)NCc2cccc(Cl)c2F)C1 (mixture of isomers) gave an IC50 of > 50 µM (Cytochrome P450 2B6 (CYP2B6, Homo sapiens, UniProt P20813); enzyme activity, inhibitor; human, liver microsomes).
For C[C@@]1(F)[C@H](O)[C@@H](CO)O[C@H]1n1cnc2c(=O)[nH]c(N)nc21, “Papp B to A” read 11.9 ± 0.6 ×10⁻⁶ cm/s (ABCB1; bidirectional transport; LLC-PK1, human MDR1, transfected with; 10 µM, together with: zosuquidar 1 µM).
C=CC(=O)Nc1cc(Nc2nccc(-c3cn(C)c4ccccc34)n2)c(OCC(F)(F)F)nc1N(C)CCN(C)C: “induction relative to positive control” 5.21% (CYP1A2 human; inducer; hepatocytes lot HC3-31; 0.1 µM; baseline: omeprazole 100 µM).
With O=C1CCC(N2Cc3c(ccc(C(=O)O)c3F)C2=O)C(=O)N1 (stereo not shown) the fraction unbound was 0.729 (ALB; equilibrium dialysis; human serum albumin 50 mg/mL; 6 h, 37 °C).
With CN1CCN(c2ccc3[nH]c(-c4ccc5[nH]c(-c6ccc(OCCCCNC(=O)c7ccc8c(c7)C7(OC8=O)c8ccc(N(C)C)cc8C(C)(C)c8cc(N(C)C)ccc87)cc6)nc5c4)nc3c2)CC1 the Kd was 31 ± 9 µM (ALB; binding, fluorescence titration; PBS; 1 h).
The induction of C=C(NC(=O)c1csc(-c2nc3c(cc2O)-c2nc(cs2)C(=O)NC(C(C)O)C(=O)NC(=C(C)OC)c2nc(cs2)C(=O)NC2c4nc(cs4)C(=O)NC(COC(=O)c4c5c6c(cccc6n4O)COC(=O)C(OC4CC(C)(O)C(N(C)C)C(C)O4)C2OC5)c2nc-3cs2)n1)C(N)=O (stereo not shown) is reported as < 40% (CYP2B6 human; enzyme activity, inducer; cryopreserved primary human hepatocytes; 0.1 to 6 µM, 3 days; baseline: positive control).
For CC1(C(=O)OC2OC(C(=O)O)C(O)C(O)C2O)CCC2(C)CCC3(C)C(=CC(=O)C4C5(C)CCC(O)C(C)(C)C5CCC43C)C2C1 (stereo not shown), “net transport ratio” read 4 ± 0.9 (ABCC4 (Homo sapiens, UniProt O15439); substrate, vesicular transport, item: MRP4; inside-out membrane vesicles; 100 µM, 1 h; baseline: with over without vanadate).

Some of these lines once more:
C=CC(=O)Nc1cc(Nc2nccc(-c3cn(C)c4ccccc34)n2)c(OCC(F)(F)F)nc1N(C)CCN(C)C: “induction relative to positive control” 5.21% (CYP1A2 human; inducer; hepatocytes lot HC3-31; 0.1 µM; baseline: omeprazole 100 µM).
For C[C@@]1(F)[C@H](O)[C@@H](CO)O[C@H]1n1cnc2c(=O)[nH]c(N)nc21, “Papp B to A” read 11.9 ± 0.6 ×10⁻⁶ cm/s (ABCB1; bidirectional transport; LLC-PK1, human MDR1, transfected with; 10 µM, together with: zosuquidar 1 µM).
